Experimental data pooled from the literature.
Compare with care: the assays were run in different laboratories. Numbers after ± are the reported error. ≈ marks a conversion by molar mass, not a printed value.
Organism: Escherichia coli

| SMILES | assay | test system | conditions | scale | endpoint | value |
| --- | --- | --- | --- | --- | --- | --- |
| COc1ccccc1C(=O)Oc1cccccc1=O | microbial growth, broth dilution | ATCC35218 | – | – | MIC80 | 100 µM (≈ 25.6 µg/mL) |
| O=C(CCCc1cn(C[C@H]2O[C@@H]3O[C@H]4[C@H](O)[C@@H](O)[C@@H](O[C@H]5[C@H](O)[C@@H](O)[C@@H](O[C@H]6[C@H](O)[C@@H](O)[C@@H](O[C@H]7[C@H](O)[C@@H](O)[C@@H](O[C@H]8[C@H](O)[C@@H](O)[C@@H](O[C@H]2[C@H](O)[C@H]3O)O[C@@H]8Cn2cc(CCCC(=O)N[C@H]3CCOC3=O)nn2)O[C@@H]7Cn2cc(CCCC(=O)N[C@H]3CCOC3=O)nn2)O[C@@H]6Cn2cc(CCCC(=O)N[C@H]3CCOC3=O)nn2)O[C@@H]5Cn2cc(CCCC(=O)N[C@H]3CCOC3=O)nn2)O[C@@H]4Cn2cc(CCCC(=O)N[C@H]3CCOC3=O)nn2)nn1)N[C@H]1CCOC1=O | LuxR reporter, antagonist | DH5α sensor strain | 40 µM, with: OHHL 200 nM | – | inhibition | 8 ± 4% |
| CC[C@H](C)[C@H](NC(=O)[C@H](CC1CCCCC1)NC(=O)[C@@H]1CCCN1C(=O)[C@@H](N)CCCN)C(=O)N[C@H](Cc1ccccc1)C(=O)N[C@@H](Cc1cn(Cc2ccccc2)cn1)C(N)=O | bacterial growth | ATCC 35218 | – | – | IC50 | > 20 µg/mL |
| CO[C@H]1O[C@H](COC(c2ccccc2)(c2ccccc2)c2ccccc2)[C@@H](OS(=O)(=O)c2ccccc2)[C@H](OS(=O)(=O)c2ccccc2)[C@H]1OS(=O)(=O)c1ccccc1 | microbial killing, broth dilution | – | – | – | MBC | 16 µg/mL (≈ 0.0187 mM) |
| CCCCCCCCCCCC(=O)Oc1c(C)c(OC)c2c(c1C)OC(=O)[C@@H](CCCCCCCCCC)[C@]2(O)/C=C/c1ccccc1 (relative stereo) | microbial killing, broth dilution | ATCC25922 | – | – | MBC | > 5000 µg/mL |
| OC[C@H]1O[C@@H]2O[C@H]3[C@H](O)[C@@H](O)[C@@H](O[C@H]4[C@H](O)[C@@H](O)[C@@H](O[C@H]5[C@H](O)[C@@H](O)[C@@H](O[C@H]6[C@H](O)[C@@H](O)[C@@H](O[C@H]7[C@H](O)[C@@H](O)[C@@H](O[C@H]1[C@H](O)[C@H]2O)O[C@@H]7CO)O[C@@H]6CO)O[C@@H]5CO)O[C@@H]4CO)O[C@@H]3CO | LuxR reporter, antagonist | DH5α sensor strain | 4 µM, with: OHHL 200 nM | – | inhibition | 3 ± 7% |
| CC(CCCOC(=O)CCC[N+](C)(C)C)C1CCC2C3CCC4CC(OC(=O)CCC[N+](C)(C)C)CCC4(C)C3CCC12C (stereo not shown) | microbial growth, disc diffusion | ATCC25922 | 62.5 µg/disc, 24 h | – | inhibition zone | 13 mm |
| N=C(N)NCCC[C@@H]1NC(=O)[C@H](CCCNC(=N)N)NC(=O)[C@@H](C(c2ccccc2)c2ccccc2)NC(=O)[C@H](Cc2c[nH]c3ccccc23)NC(=O)[C@@H](C(c2ccccc2)c2ccccc2)NC(=O)[C@@H](CCCNC(=N)N)NC(=O)[C@@H](CCCNC(=N)N)NC1=O | – | ATCC BAA-2452 | 1 x MIC, 24 h, preformed biofilm | – | biofilm mass reduction | 41 to 49% |
| CO[C@@H]1[C@@H](OC)[C@H]2O[C@H]3[C@H](OC)[C@@H](OC)[C@@H](O[C@H]4[C@H](OC)[C@@H](OC)[C@@H](O[C@H]5[C@H](OC)[C@@H](OC)[C@@H](O[C@H]6[C@H](OC)[C@@H](OC)[C@@H](O[C@H]7[C@H](OC)[C@@H](OC)[C@@H](O[C@H]8[C@H](OC)[C@@H](OC)[C@@H](O[C@@H]1[C@@H](Cn1cc(CCCC(=O)N[C@H]9CCOC9=O)nn1)O2)O[C@@H]8Cn1cc(CCCC(=O)N[C@H]2CCOC2=O)nn1)O[C@@H]7Cn1cc(CCCC(=O)N[C@H]2CCOC2=O)nn1)O[C@@H]6Cn1cc(CCCC(=O)N[C@H]2CCOC2=O)nn1)O[C@@H]5Cn1cc(CCCC(=O)N[C@H]2CCOC2=O)nn1)O[C@@H]4Cn1cc(CCCC(=O)N[C@H]2CCOC2=O)nn1)O[C@@H]3Cn1cc(CCCC(=O)N[C@H]2CCOC2=O)nn1 | LuxR reporter, antagonist | DH5α sensor strain | 200 µM, with: OHHL 200 nM | – | inhibition | 15 ± 2% |
| CC(C)c1ccc2c(c1)CCC1C(C)(CN(CC(O)C[N+](C)(C)C)CC(O)C[N+](C)(C)C)CCCC21C (stereo not shown) | microbial growth, disc diffusion | ATCC25922 | 250 µg/disc, 24 h | – | inhibition zone | 11 mm |
| CCCCCCCCCC(=O)Oc1c(C)c(OC)c2c(/C=C/c3ccccc3)c(CCCCCCCC)c(=O)oc2c1C | microbial killing, broth dilution | ATCC25922 | – | – | MBC | > 5000 µg/mL |
| Cc1ccnc(-c2cc(C(=O)NCCCCCC(=O)N[C@@H](CCCNC(=N)N)C(=O)N[C@@H](Cc3c[nH]c4ccccc34)C(=O)N[C@@H](CCCNC(=N)N)C(=O)N[C@@H](Cc3c[nH]c4ccccc34)C(=O)N[C@@H](CCCNC(=N)N)C(=O)N[C@@H](Cc3c[nH]c4ccccc34)C(N)=O)ccn2)c1 | – | susceptible | 16 µM, dark | baseline: untreated | reduction in viable count | < 3 log10 CFU |
| COc1cc2c(cc1OC)-c1cc3ccc(OC)c(OC)c3c[n+]1CC2.[Cl][Fe-]([Cl])([Cl])[Cl] | – | – | 24 h, 37 °C | – | MIC50 | 368 µM |
| O=C(CCCc1cn(C[C@H]2O[C@@H]3O[C@H]4[C@H](O)[C@@H](O)[C@@H](O[C@H]5[C@H](O)[C@@H](O)[C@@H](O[C@H]6[C@H](O)[C@@H](O)[C@@H](O[C@H]7[C@H](O)[C@@H](O)[C@@H](O[C@H]8[C@H](O)[C@@H](O)[C@@H](O[C@H]9[C@H](O)[C@@H](O)[C@@H](O[C@H]2[C@H](O)[C@H]3O)O[C@@H]9CO)O[C@@H]8CO)O[C@@H]7CO)O[C@@H]6CO)O[C@@H]5CO)O[C@@H]4CO)nn1)N[C@H]1CCOC1=O | LuxR reporter, antagonist | DH5α sensor strain | 10 µM, with: OHHL 200 nM | – | inhibition | -3 ± 8% |
| Cc1cccc(C(=O)Oc2cccccc2=O)c1 | microbial growth, broth dilution | ATCC35218 | – | – | MIC80 | > 100 µM |
| CO[C@@H]1[C@@H](OC)[C@H]2O[C@H]3[C@H](OC)[C@@H](OC)[C@@H](O[C@H]4[C@H](OC)[C@@H](OC)[C@@H](O[C@H]5[C@H](OC)[C@@H](OC)[C@@H](O[C@H]6[C@H](OC)[C@@H](OC)[C@@H](O[C@H]7[C@H](OC)[C@@H](OC)[C@@H](O[C@@H]1[C@@H](Cn1cc(CCCC(=O)N[C@H]8CCOC8=O)nn1)O2)O[C@@H]7Cn1cc(CCCC(=O)N[C@H]2CCOC2=O)nn1)O[C@@H]6Cn1cc(CCCC(=O)N[C@H]2CCOC2=O)nn1)O[C@@H]5Cn1cc(CCCC(=O)N[C@H]2CCOC2=O)nn1)O[C@@H]4Cn1cc(CCCC(=O)N[C@H]2CCOC2=O)nn1)O[C@@H]3Cn1cc(CCCC(=O)N[C@H]2CCOC2=O)nn1 | LuxR reporter, antagonist | DH5α sensor strain | 20 µM, with: OHHL 200 nM | – | inhibition | 12 ± 1% |
| CCCCCCCCCC(=O)Oc1c(C)c(OC)c2c(c1C)OC(=O)C(CCCCCCCC)C2(O)C=Cc1ccccc1 (stereo not shown) | microbial killing, broth dilution | ATCC25922 | – | – | MBC | > 5000 µg/mL |
| O=C(CCCc1cn(C[C@H]2O[C@@H]3O[C@H]4[C@H](O)[C@@H](O)[C@@H](O[C@H]5[C@H](O)[C@@H](O)[C@@H](O[C@H]6[C@H](O)[C@@H](O)[C@@H](O[C@H]7[C@H](O)[C@@H](O)[C@@H](O[C@H]8[C@H](O)[C@@H](O)[C@@H](O[C@H]9[C@H](O)[C@@H](O)[C@@H](O[C@H]2[C@H](O)[C@H]3O)O[C@@H]9Cn2cc(CCCC(=O)N[C@H]3CCOC3=O)nn2)O[C@@H]8Cn2cc(CCCC(=O)N[C@H]3CCOC3=O)nn2)O[C@@H]7Cn2cc(CCCC(=O)N[C@H]3CCOC3=O)nn2)O[C@@H]6Cn2cc(CCCC(=O)N[C@H]3CCOC3=O)nn2)O[C@@H]5Cn2cc(CCCC(=O)N[C@H]3CCOC3=O)nn2)O[C@@H]4Cn2cc(CCCC(=O)N[C@H]3CCOC3=O)nn2)nn1)N[C@H]1CCOC1=O | LuxR reporter, antagonist | DH5α sensor strain | 100 µM, with: OHHL 200 nM | – | inhibition | 59 ± 2% |
| CC[C@H](C)[C@H](NC(=O)[C@@H]1CCCN1C(=O)[C@H](CCSC)NC(=O)[C@H](CC(C)C)NC(=O)[C@H](Cc1ccccc1)NC(=O)[C@H](Cc1ccc(O)cc1)NC(=O)[C@@H]1CCC(=O)NCC(=O)NCC(=O)NCC(=O)NCC(=O)N2CCC[C@H]2C(=O)N[C@@H]([C@@H](C)O)C(=O)N2CCC[C@H]2C(=O)N1)C(=O)N[C@@H](CC(=O)O)C(=O)N1CCC[C@H]1C(=O)N[C@@H](C)C(=O)N[C@@H](Cc1c[nH]c2ccccc12)C(=O)N[C@@H](CC(C)C)C(=O)N[C@@H](CCC(N)=O)C(=O)N[C@@H](C)C(=O)N[C@@H](CC(N)=O)C(=O)N[C@@H](CC(C)C)C(=O)N1CCC[C@H]1C(=O)N[C@@H](CC(N)=O)C(=O)N[C@H](C(=O)NCC(=O)N[C@@H](CCCCN)C(=O)N[C@@H](Cc1ccc(O)cc1)C(=O)N[C@@H](CC(N)=O)C(=O)O)[C@@H](C)O | spot-on-lawn | MG1655 wild type | concentration not given, 37 °C | – | antimicrobial activity | inactive |
| CC(C)C[C@H](NC(=O)[C@H](Cc1ccc(O)cc1)NC(=O)[C@@H]1CCCN1C(=O)[C@H](CCCNC(=N)N)NC(=O)[C@@H]1CCCN1C(=O)[C@H](CCCCN)NC(=O)[C@H](CC(=O)O)NC(=O)[C@@H]1CCCN1C(=O)[C@H](CCCNC(=N)N)NC(=O)C1(N)CCCCC1)C(=O)N1CCC[C@H]1C(=O)N[C@@H](CCCNC(=N)N)C(=O)N1CCC[C@H]1C(=O)N[C@@H](CCCNC(=N)N)C(=O)N1CCC[C@H]1C(=O)N1CCC[C@H]1C(=O)N[C@@H](CCCNC(=N)N)C(=O)N1CCC[C@H]1C(=O)N[C@H](C(=O)N[C@@H](CCCNC(=N)N)C(=O)N[C@@H](CSCc1ccc(CSC[C@H](NC(=O)[C@H](CCCNC(=N)N)NC(=O)[C@@H](NC(=O)[C@@H]2CCCN2C(=O)[C@H](CCCNC(=N)N)NC(=O)[C@@H]2CCCN2C(=O)[C@@H]2CCCN2C(=O)[C@H](CCCNC(=N)N)NC(=O)[C@@H]2CCCN2C(=O)[C@H](CCCNC(=N)N)NC(=O)[C@@H]2CCCN2C(=O)[C@H](CC(C)C)NC(=O)[C@H](Cc2ccc(O)cc2)NC(=O)[C@@H]2CCCN2C(=O)[C@H](CCCNC(=N)N)NC(=O)[C@@H]2CCCN2C(=O)[C@H](CCCCN)NC(=O)[C@H](CC(=O)O)NC(=O)[C@@H]2CCCN2C(=O)[C@H](CCCNC(=N)N)NC(=O)C2(N)CCCCC2)C(C)C)C(=O)NN)cc1)C(=O)NN)C(C)C | membrane disruption, propidium iodide uptake | 25922 | 90 min, 37 °C | – | MDC | 11.8 ± 0.6 µg/mL |
| CC(CCCOC(=O)CCC[N+](C)(C)C)C1CCC2C3CCC4CC(OC(=O)CCC[N+](C)(C)C)CCC4(C)C3CC(OC(=O)CCC[N+](C)(C)C)C12C (stereo not shown) | microbial growth, disc diffusion | ATCC25922 | 125 µg/disc, 24 h | – | inhibition zone | 10 mm |
| COc1c(C)c(O)c(C(=O)C=Cc2ccccc2)c(OC)c1C | microbial killing, broth dilution | ATCC25922 | – | – | MBC | > 5000 µg/mL |

Excerpt of the above:
| SMILES | assay | test system | conditions | scale | endpoint | value |
| --- | --- | --- | --- | --- | --- | --- |
| CCCCCCCCCC(=O)Oc1c(C)c(OC)c2c(c1C)OC(=O)C(CCCCCCCC)C2(O)C=Cc1ccccc1 (stereo not shown) | microbial killing, broth dilution | ATCC25922 | – | – | MBC | > 5000 µg/mL |
| O=C(CCCc1cn(C[C@H]2O[C@@H]3O[C@H]4[C@H](O)[C@@H](O)[C@@H](O[C@H]5[C@H](O)[C@@H](O)[C@@H](O[C@H]6[C@H](O)[C@@H](O)[C@@H](O[C@H]7[C@H](O)[C@@H](O)[C@@H](O[C@H]8[C@H](O)[C@@H](O)[C@@H](O[C@H]9[C@H](O)[C@@H](O)[C@@H](O[C@H]2[C@H](O)[C@H]3O)O[C@@H]9Cn2cc(CCCC(=O)N[C@H]3CCOC3=O)nn2)O[C@@H]8Cn2cc(CCCC(=O)N[C@H]3CCOC3=O)nn2)O[C@@H]7Cn2cc(CCCC(=O)N[C@H]3CCOC3=O)nn2)O[C@@H]6Cn2cc(CCCC(=O)N[C@H]3CCOC3=O)nn2)O[C@@H]5Cn2cc(CCCC(=O)N[C@H]3CCOC3=O)nn2)O[C@@H]4Cn2cc(CCCC(=O)N[C@H]3CCOC3=O)nn2)nn1)N[C@H]1CCOC1=O | LuxR reporter, antagonist | DH5α sensor strain | 100 µM, with: OHHL 200 nM | – | inhibition | 59 ± 2% |
